Published values collected from several papers.
Lines come from different studies, so protocols differ. Several values in a cell are separate wells, animals, samples, runs or records. ± marks the error that the study gave.

O=C(C[Se]C(=O)c1cc2ccccc2o1)Nc1cccc(C(F)(F)F)c1  CC50 (NCI60 renal subpanel; cytotoxicity, inhibitor; five-dose): 6.43 µM
[Cl-].[Cl-].[Ru+2].c1ccc(-c2ccccn2)nc1.c1ccc(-c2ccccn2)nc1.c1ccc2cc3nc4c5cccnc5c5ncccc5c4nc3cc2c1  phototoxicity index (SK-MEL-28; 1% O2, added: blue light 453 nm, 100 J/cm2; reference: dark over light EC50): 1
Cc1cc(Oc2nc(N3CC[C@@H](c4ccncc4)C3)ncc2F)[nH]n1  IC50 (SK-LMS-1; cell proliferation; uterus cancer): 83.2 µM
Cc1[nH][n+]([Pt-2]([Cl])([n+]2[nH]c(C)c(CSC3CCCCC3)c2C)[n+]2[nH]c(C)c(CSC3CCCCC3)c2C)c(C)c1CSC1CCCCC1.[Cl-]  selectivity index (Jurkat; cytotoxicity; reference: IC50 HEK293 over IC50 Jurkat): 12.5
O=C(C[Se]C(=O)c1ccco1)Nc1cccc(C(F)(F)F)c1  CC50 (NCI60 prostate subpanel (PC-3, DU-145); cytotoxicity, inhibitor; five-dose): 53.8 µM
CC(C)CC(O)(CC(C)C)c1cn(C(=O)N2CCCC2)nn1  protein level (mouse T-cells; SILAC proteomics, refers to: Tmsb4x; 1 nM, 6 h, single peptides, unit not given; reference: DMSO): 1.14 and 1.25
CC(=O)Oc1ccccc1C(=O)[Se]CC(=O)Nc1cccc(C(F)(F)F)c1  CC50 (NCI60 renal subpanel; cytotoxicity, inhibitor; five-dose): 17.6 µM
CC(C)[C@H](NC(=O)[C@H](CCCNC(=N)N)NC(=O)[C@@H]1CCCN1C(=O)[C@@H](NC(=O)[C@H](C)NC(=O)[C@H](Cc1ccc(O)cc1)NC(=O)[C@H](CCC(N)=O)NC(=O)[C@H](CCCCN)NC(=O)[C@H](CCCNC(=N)N)NC(=O)[C@@H]1CCCN1C(=O)[C@H](CCC(=O)O)NC(=O)[C@@H](NC(=O)[C@H](C)N)[C@@H](C)O)[C@@H](C)O)C(=O)N[C@@H](Cc1ccccc1)C(=O)N[C@@H](Cc1c[nH]c2ccccc12)C(=O)N[C@H](C(=O)N[C@@H](CC(=O)O)C(=O)N[C@@H](C)C(=O)N1CCC[C@H]1C(=O)NCC(=O)NCCOCCOCCOCCOCCOCCOCCOCCOCCOCCOCCOCCOCCC(=O)N[C@@H](CS)C(N)=O)[C@@H](C)O  selectivity ratio (HCC78; phage binding; reference: targeting over control phage): 1.6 ± 0.8
[Cl-].[Cl-].[Ru+2].c1ccc(-c2ccccn2)nc1.c1ccc(-c2ccccn2)nc1.c1ccc2cc3nc4c5cccnc5c5ncccc5c4nc3cc2c1  phototherapeutic index (SK-MEL-28; resazurin; normoxia, added: visible light; reference: dark EC50 over light EC50): 791
O=C(C[Se]C(=O)c1cccnc1Nc1cccc(C(F)(F)F)c1)Nc1cccc(C(F)(F)F)c1  CC50 (NCI60 renal subpanel; cytotoxicity, inhibitor; five-dose): 6.13 µM
O=C(O)c1ccc(-c2nc(-c3ccccc3Cl)c3sccn23)cc1  CD235a fluorescence intensity (K562; erythroid differentiation, flow cytometry; 0.1 mM, 72 h; reference: untreated): 0.73 fold change and 1.11 fold change and 1.18 fold change
O=C(C[Se]C(=O)c1ccccc1)Nc1cccc(C(F)(F)F)c1  CC50 (NCI60 ovarian subpanel; cytotoxicity, inhibitor; five-dose): 13.9 µM
CC(C)C[C@H](NC(=O)[C@@H]1CCCN1C(=O)[C@H](CCCCN)NC(=O)[C@@H](N)CO)C(=O)N1CCC[C@H]1C(=O)N[C@@H](CCC(=O)O)C(=O)N[C@H](C(=O)N[C@H](C(=O)N[C@@H](CC(=O)O)C(=O)N[C@@H](CCC(=O)O)C(=O)N[C@@H](Cc1ccc(O)cc1)C(=O)NCC(=O)NCCOCCOCCOCCOCCOCCOCCOCCOCCOCCOCCOCCOCCOCCOCCOCCOCCOCCOCCOCCOCCOCCOCCOCCOCCC(=O)N[C@@H](CCCCNC(=O)CC[C@H](C(=O)O)N1CCN(CC(=O)O)CCN(CC(=O)O)CC1)C(=O)N1CCN(CCCN(C)c2ccc3nccc(C(=O)NCC(=O)N4CC(F)(F)C[C@H]4C#N)c3c2)CC1)[C@@H](C)O)C(C)C  EC50 (HT-1080 expressing human FAP; T cell-mediated target cell lysis, luciferase cytotoxicity; 16 h, added: human donor T cells, E:T 5:1): 2.12e-05 µM
O=C(C[Se]C(=O)c1cccs1)Nc1cccc(C(F)(F)F)c1  mean TGI (NCI60 ovarian subpanel; total growth inhibition, inhibitor; five-dose): 3.56 µM
CCOC(=O)C1(Cc2ccccc2)Oc2cc(F)ccc2N(Cc2ccccc2)C1=O (stereo not drawn)  inhibition (HEK293T; cytotoxicity, CCK-8; 12.5 µM, 72 h): 0.24 ± 0.45%
COc1ccccc1-c1ccncc1C(=O)Nc1nnc(OCc2ccc(Cl)cc2)s1  colony survival (RPE-1 BRCA1 WT parental; 0.5 µM, run 1; reference: untreated): 88.9%
NC(=O)N/N=C/c1ccc(OCc2ccccc2)cc1  catalase activity (OD450) (IMR-32; 300 µg/mL, 24 h; higher = more activity): 0.268 a.u.
CC(C)C[C@H](NC(=O)[C@H](CC(=O)O)NC(=O)CNC(=O)[C@@H](N)CCCNC(=N)N)C(=O)N[C@@H](C)C(=O)N[C@H](C(=O)N[C@@H](CC(C)C)C(=O)N[C@@H](CCCNC(=N)N)C(=O)N[C@@H](CCC(N)=O)C(=O)N[C@@H](CC(C)C)C(=O)N[C@@H](C)C(=O)N[C@@H](CCC(N)=O)C(=O)N[C@@H](CCC(=O)O)C(=O)N[C@@H](CC(=O)O)C(=O)NCC(=O)N[C@H](C(=O)N[C@H](C(=O)NCC(=O)N[C@H](C(=O)N[C@@H](CCCNC(=N)N)C(=O)NCCOCCOCCOCCOCCOCCOCCOCCOCCOCCOCCOCCOCCC(=O)N[C@@H](CS)C(N)=O)C(C)C)C(C)C)C(C)C)[C@@H](C)O  selectivity ratio (H322; phage binding; 10 min, 37 °C; reference: control phage): 68 ± 17
O=C(C[Se]C(=O)c1ccc2ccccc2c1)Nc1cccc(C(F)(F)F)c1  CC50 (NCI60 ovarian subpanel; cytotoxicity, inhibitor; five-dose): 8.37 µM
CSCC[C@H](NC(=O)[C@@H](NC(=O)[C@H](CCC(N)=O)NC(=O)[C@H](CO)NC(=O)[C@@H](N)C(C)C)[C@@H](C)O)C(=O)N[C@@H](CCCNC(=N)N)C(=O)N[C@@H](CCC(N)=O)C(=O)N[C@H](C(=O)N[C@@H](C)C(=O)N[C@H](C(=O)N1CCC[C@H]1C(=O)N[C@@H](CC(C)C)C(=O)N[C@@H](CC(C)C)C(=O)N[C@@H](Cc1c[nH]c2ccccc12)C(=O)N[C@@H](Cc1ccccc1)C(=O)N[C@@H](Cc1c[nH]c2ccccc12)C(=O)N[C@H](C(=O)NCC(=O)N[C@@H](CO)C(=O)N[C@@H](CC(C)C)C(=O)NCCOCCOCCOCCOCCOCCOCCOCCOCCOCCOCCOCCOCCC(=O)N[C@@H](CS)C(N)=O)[C@@H](C)O)C(C)C)[C@@H](C)O  selectivity ratio (T47D breast cancer; cell binding, phage binding, refers to: output/input phage; 10 min, 37 °C; reference: control phage): 10 ± 2.2
CC1OC2OC3C4=C(OC3(C)C12O)C(=O)c1c(O)cccc1C4=O (stereo not drawn)  growth percent (PC-3; SRB; 10 µg/mL, 48 h; negative values mean cell killing): -76.4%
Cc1cccc(-c2cccc(C)n2)n1.Cc1cccc(-c2cccc(C)n2)n1.F[P-](F)(F)(F)(F)F.F[P-](F)(F)(F)(F)F.[Ru+2].c1ccc2c(-c3nc4c5cccnc5c5ncccc5c4[nH]3)cccc2c1  EC50 (SK-MEL-28; cell viability; 1% O2, added: blue light 453 nm, 100 J/cm2): 6.94 µM and 6.9 µM
CC(C)(C)C(=O)OCOP(=O)(OCOC(=O)C(C)(C)C)C1CCCN(O)C1=O (stereo not drawn)  TGI (SK-OV-3): 8.81 µM
CC1CCC2C(C)C(OC(=O)CCC(=O)N3CCC(Nc4ccc(S(=O)(=O)NC(=O)c5ccc(N6CCN(CC7=C(c8ccc(Cl)cc8)CC(C)(C)CC7)CC6)cc5Oc5cnc6[nH]ccc6c5)cc4[N+](=O)[O-])CC3)OC3OC4(C)CCC1C32OO4 (stereo not drawn)  early apoptotic cells (THP-1; annexin V/PI flow cytometry, refers to: annexin V+/PI-; 0.4 µM, 24 h): 55.8%
CC(=O)NCSC[C@H](NC(=O)[C@@H]1CCCN1C(=O)[C@H](C)NC(=O)[C@@H](NC(=O)CNC(=O)[C@@H](NC(=O)[C@H](Cc1c[nH]c2ccccc12)NC(=O)[C@H](C)NC(=O)CNC(=O)[C@H](CO)NC(=O)[C@H](C)NC(=O)[C@@H]1CCCN1C(=O)[C@H](Cc1c[nH]c2ccccc12)NC(=O)[C@H](C)NC(=O)[C@H](C)NC(=O)[C@@H](N)Cc1ccc(O)cc1)[C@@H](C)O)[C@@H](C)O)C(=O)N[C@@H](CO)C(=O)N[C@@H](C)C(=O)NCC(=O)N[C@H](C(=O)NCCOCCOCCOCCOCCOCCOCCOCCOCCOCCOCCOCCOCCC(=O)N[C@@H](CS)C(N)=O)[C@@H](C)O  selectivity ratio (H1650 lung adenocarcinoma; cell binding, phage binding, refers to: output/input phage; 10 min, 37 °C; reference: control phage): 2 ± 0.3
O=C(C[Se]C(=O)c1cc2ccccc2s1)Nc1cccc(C(F)(F)F)c1  CC50 (NCI60 prostate subpanel (PC-3, DU-145); cytotoxicity, inhibitor; five-dose): 6.17 µM
C=CCN1C(=O)C(CC=C)(C(=O)OCC)Oc2cc(F)ccc21 (stereo not drawn)  inhibition (HEK293T; cytotoxicity, CCK-8; 100 µM, 72 h): 1.11 ± 0.3%

A few entries again:
[Cl-].[Cl-].[Ru+2].c1ccc(-c2ccccn2)nc1.c1ccc(-c2ccccn2)nc1.c1ccc2cc3nc4c5cccnc5c5ncccc5c4nc3cc2c1  phototoxicity index (SK-MEL-28; 1% O2, added: blue light 453 nm, 100 J/cm2; reference: dark over light EC50): 1
CCOC(=O)C1(Cc2ccccc2)Oc2cc(F)ccc2N(Cc2ccccc2)C1=O (stereo not drawn)  inhibition (HEK293T; cytotoxicity, CCK-8; 12.5 µM, 72 h): 0.24 ± 0.45%
CC(C)C[C@H](NC(=O)[C@H](CC(=O)O)NC(=O)CNC(=O)[C@@H](N)CCCNC(=N)N)C(=O)N[C@@H](C)C(=O)N[C@H](C(=O)N[C@@H](CC(C)C)C(=O)N[C@@H](CCCNC(=N)N)C(=O)N[C@@H](CCC(N)=O)C(=O)N[C@@H](CC(C)C)C(=O)N[C@@H](C)C(=O)N[C@@H](CCC(N)=O)C(=O)N[C@@H](CCC(=O)O)C(=O)N[C@@H](CC(=O)O)C(=O)NCC(=O)N[C@H](C(=O)N[C@H](C(=O)NCC(=O)N[C@H](C(=O)N[C@@H](CCCNC(=N)N)C(=O)NCCOCCOCCOCCOCCOCCOCCOCCOCCOCCOCCOCCOCCC(=O)N[C@@H](CS)C(N)=O)C(C)C)C(C)C)C(C)C)[C@@H](C)O  selectivity ratio (H322; phage binding; 10 min, 37 °C; reference: control phage): 68 ± 17
